Experimental data collected from several papers.
A part holds a random share of what one study measured. Several values in a cell are separate wells, animals, samples, runs or records.
UniProt P49759, sequence (whole entry, looked up): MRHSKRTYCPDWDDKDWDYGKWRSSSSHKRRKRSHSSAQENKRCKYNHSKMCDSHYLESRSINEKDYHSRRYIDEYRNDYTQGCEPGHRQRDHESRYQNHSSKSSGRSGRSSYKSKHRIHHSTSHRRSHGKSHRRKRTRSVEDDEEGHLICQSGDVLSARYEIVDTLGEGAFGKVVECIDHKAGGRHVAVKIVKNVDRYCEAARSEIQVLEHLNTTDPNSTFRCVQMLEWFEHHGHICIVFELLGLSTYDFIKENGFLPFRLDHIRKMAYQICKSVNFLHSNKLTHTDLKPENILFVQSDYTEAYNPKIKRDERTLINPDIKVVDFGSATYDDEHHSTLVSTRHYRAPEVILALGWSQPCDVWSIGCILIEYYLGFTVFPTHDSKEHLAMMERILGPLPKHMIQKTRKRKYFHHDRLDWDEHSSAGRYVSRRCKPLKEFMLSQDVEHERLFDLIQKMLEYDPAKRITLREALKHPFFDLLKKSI
UniProt Q9NYL2, sequence (whole entry, looked up): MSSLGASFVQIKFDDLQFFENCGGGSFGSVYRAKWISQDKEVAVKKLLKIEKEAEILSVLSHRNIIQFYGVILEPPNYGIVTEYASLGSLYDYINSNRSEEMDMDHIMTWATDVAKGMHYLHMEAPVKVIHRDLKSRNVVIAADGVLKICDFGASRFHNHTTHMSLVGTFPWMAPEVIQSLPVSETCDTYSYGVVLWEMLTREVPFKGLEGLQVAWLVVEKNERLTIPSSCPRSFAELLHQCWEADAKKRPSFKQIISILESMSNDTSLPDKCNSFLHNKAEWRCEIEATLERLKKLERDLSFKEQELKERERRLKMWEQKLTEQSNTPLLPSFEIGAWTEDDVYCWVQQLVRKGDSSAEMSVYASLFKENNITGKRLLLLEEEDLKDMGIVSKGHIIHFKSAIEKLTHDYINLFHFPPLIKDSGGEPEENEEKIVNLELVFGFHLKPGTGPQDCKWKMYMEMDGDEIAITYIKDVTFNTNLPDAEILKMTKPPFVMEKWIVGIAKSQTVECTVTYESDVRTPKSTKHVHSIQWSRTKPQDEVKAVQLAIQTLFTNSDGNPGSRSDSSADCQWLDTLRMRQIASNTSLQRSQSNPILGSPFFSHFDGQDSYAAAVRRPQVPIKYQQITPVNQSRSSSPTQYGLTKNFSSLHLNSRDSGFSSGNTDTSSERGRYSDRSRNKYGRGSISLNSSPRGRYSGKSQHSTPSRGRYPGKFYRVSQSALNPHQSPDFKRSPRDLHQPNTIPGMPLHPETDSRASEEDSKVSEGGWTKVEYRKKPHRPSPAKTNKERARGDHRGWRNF
UniProt Q96SB4, sequence (whole entry, looked up): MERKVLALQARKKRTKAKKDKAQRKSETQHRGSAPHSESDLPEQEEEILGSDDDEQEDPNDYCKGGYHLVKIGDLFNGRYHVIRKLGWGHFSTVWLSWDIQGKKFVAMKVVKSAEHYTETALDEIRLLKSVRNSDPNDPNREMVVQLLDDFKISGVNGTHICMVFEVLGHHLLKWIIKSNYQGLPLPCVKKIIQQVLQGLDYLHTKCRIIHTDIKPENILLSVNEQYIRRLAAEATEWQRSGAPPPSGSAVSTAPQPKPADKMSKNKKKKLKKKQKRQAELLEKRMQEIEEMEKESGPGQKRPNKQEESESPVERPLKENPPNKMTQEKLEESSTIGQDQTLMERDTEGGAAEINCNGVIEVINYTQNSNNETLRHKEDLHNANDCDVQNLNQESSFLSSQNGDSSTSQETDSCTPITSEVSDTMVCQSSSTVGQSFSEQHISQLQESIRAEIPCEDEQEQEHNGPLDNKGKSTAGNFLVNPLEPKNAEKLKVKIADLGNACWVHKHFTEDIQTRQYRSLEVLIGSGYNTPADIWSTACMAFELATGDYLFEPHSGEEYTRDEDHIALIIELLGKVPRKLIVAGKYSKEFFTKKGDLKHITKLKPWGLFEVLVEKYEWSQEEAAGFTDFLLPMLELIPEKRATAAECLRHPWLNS
UniProt P08069, sequence (whole entry, looked up): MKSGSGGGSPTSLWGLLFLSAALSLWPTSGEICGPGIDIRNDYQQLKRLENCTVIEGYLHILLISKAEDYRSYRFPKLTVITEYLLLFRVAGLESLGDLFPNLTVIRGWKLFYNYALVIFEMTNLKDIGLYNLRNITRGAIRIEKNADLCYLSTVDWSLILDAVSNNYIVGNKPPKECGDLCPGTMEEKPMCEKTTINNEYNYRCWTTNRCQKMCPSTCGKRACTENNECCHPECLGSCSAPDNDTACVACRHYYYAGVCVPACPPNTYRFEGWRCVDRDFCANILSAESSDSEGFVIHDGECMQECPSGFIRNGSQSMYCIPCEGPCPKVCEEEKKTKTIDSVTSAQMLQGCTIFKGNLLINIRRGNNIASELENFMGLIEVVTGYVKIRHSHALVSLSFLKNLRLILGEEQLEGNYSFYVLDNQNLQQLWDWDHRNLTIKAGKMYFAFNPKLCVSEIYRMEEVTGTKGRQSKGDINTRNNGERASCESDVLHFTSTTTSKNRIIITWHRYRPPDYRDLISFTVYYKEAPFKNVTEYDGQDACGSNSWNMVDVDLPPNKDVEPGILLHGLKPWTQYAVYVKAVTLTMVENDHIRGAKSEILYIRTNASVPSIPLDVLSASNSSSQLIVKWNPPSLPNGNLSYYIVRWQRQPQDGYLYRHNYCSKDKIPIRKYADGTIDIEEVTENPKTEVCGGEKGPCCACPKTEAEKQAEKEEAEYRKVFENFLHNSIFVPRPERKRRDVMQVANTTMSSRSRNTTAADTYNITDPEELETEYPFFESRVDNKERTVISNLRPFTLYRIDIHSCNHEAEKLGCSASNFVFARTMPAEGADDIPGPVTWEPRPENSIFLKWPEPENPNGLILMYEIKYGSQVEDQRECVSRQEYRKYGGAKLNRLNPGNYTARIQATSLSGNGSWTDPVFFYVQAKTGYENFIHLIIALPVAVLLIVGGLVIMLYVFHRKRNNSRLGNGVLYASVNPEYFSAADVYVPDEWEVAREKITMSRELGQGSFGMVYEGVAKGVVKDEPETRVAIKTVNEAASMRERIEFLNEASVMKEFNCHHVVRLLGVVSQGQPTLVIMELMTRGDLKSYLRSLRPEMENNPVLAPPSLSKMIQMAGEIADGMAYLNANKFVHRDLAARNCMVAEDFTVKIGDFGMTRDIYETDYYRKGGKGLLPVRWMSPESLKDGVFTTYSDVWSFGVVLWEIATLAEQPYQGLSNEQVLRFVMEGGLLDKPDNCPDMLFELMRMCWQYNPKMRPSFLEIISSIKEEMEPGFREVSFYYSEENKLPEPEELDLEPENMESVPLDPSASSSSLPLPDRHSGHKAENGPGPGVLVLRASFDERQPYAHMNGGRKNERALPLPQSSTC
UniProt Q06418, sequence (whole entry, looked up): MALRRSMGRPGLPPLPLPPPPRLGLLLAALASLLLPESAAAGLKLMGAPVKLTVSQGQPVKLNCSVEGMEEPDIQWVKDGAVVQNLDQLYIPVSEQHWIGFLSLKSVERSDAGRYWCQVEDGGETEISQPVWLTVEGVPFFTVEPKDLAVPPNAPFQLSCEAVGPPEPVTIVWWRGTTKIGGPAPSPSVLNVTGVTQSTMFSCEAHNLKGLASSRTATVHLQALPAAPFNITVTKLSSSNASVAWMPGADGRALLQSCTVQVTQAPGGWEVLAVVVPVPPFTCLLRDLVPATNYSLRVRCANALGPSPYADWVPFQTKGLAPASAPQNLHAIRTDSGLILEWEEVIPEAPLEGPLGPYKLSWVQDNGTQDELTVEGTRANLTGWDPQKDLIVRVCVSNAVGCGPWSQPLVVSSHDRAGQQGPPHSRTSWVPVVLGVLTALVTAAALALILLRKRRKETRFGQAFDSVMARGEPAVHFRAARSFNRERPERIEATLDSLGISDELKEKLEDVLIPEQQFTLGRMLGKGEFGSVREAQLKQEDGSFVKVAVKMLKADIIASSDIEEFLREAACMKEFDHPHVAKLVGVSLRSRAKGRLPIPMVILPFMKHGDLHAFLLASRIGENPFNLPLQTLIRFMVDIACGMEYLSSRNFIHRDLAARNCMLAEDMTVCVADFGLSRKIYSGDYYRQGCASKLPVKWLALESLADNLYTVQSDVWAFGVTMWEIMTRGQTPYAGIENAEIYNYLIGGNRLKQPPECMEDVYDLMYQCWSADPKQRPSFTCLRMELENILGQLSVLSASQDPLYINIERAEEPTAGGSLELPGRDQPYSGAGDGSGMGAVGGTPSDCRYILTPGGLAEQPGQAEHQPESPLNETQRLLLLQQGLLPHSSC
UniProt Q8IWQ3, sequence (whole entry, looked up): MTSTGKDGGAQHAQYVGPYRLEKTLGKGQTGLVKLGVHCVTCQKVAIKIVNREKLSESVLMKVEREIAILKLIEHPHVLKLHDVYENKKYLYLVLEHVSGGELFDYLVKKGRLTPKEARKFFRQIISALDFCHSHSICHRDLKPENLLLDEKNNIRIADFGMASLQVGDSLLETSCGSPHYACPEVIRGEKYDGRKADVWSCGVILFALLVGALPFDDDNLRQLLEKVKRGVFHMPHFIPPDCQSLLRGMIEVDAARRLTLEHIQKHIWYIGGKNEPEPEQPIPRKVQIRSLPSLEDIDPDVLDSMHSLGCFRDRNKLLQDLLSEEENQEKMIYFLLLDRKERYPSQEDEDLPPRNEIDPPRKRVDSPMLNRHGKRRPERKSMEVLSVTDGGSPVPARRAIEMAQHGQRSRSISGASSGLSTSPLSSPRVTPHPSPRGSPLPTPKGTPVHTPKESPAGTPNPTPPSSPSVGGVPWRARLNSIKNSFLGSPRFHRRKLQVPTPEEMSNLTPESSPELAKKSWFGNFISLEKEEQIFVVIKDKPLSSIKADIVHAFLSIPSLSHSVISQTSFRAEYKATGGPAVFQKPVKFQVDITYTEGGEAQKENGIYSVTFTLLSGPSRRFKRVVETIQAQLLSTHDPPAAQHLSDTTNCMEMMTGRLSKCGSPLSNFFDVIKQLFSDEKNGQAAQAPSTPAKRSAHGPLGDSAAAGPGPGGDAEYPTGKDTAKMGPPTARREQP

Study 1
Compound: Cn1cnc2cc3c(Nc4cccc(Br)c4)ncnc3cc21
Read-out: enzyme activity
Action: inhibitor
Concentration: 0.5 µM
Baseline: control
target | remaining activity [%]
Ephrin type-B receptor 3 (EPHB3, Homo sapiens, UniProt P54753) | 93.8
Receptor tyrosine-protein kinase erbB-2 (ERBB2, Homo sapiens, UniProt P04626) | 47.4
Tyrosine-protein kinase receptor TYRO3 (TYRO3, Homo sapiens, UniProt Q06418) | 94.5
Dual specificity protein kinase CLK2 (CLK2, Homo sapiens, UniProt P49760) | 93.9
Tyrosine-protein kinase Fes/Fps (FES, Homo sapiens, UniProt P07332) | 101
Dual specificity tyrosine-phosphorylation-regulated kinase 1A (DYRK1A, Homo sapiens, UniProt Q13627) | 106
Tyrosine-protein kinase Tec (TEC, Homo sapiens, UniProt P42680) | 123
Ribosomal protein S6 kinase alpha-3 (RPS6KA3, Homo sapiens, UniProt P51812) | 105
Mitogen-activated protein kinase kinase kinase 20 (MAP3K20, Homo sapiens, UniProt Q9NYL2) | 93.3
Serine/threonine-protein kinase PAK 5 (PAK5, Homo sapiens, UniProt Q9P286) | 86.1
Serine/threonine-protein kinase BRSK2 (BRSK2, Homo sapiens, UniProt Q8IWQ3) | 88.6
Maternal embryonic leucine zipper kinase (MELK, Homo sapiens, UniProt Q14680) | 89
Protein kinase C zeta type (PRKCZ, Homo sapiens, UniProt Q05513) | 102
Serine/threonine-protein kinase Sgk2 (SGK2, Homo sapiens, UniProt Q9HBY8) | 104
Dual specificity protein kinase CLK1 (CLK1, Homo sapiens, UniProt P49759) | 102
Activin receptor type-1-like (ACVRL1, Homo sapiens, UniProt P37023) | 102
Protein kinase C theta type (PRKCQ, Homo sapiens, UniProt Q04759) | 96.9
Tyrosine-protein kinase JAK2 (JAK2, Homo sapiens, UniProt O60674) | 103
Tyrosine-protein kinase Yes (YES1, Homo sapiens, UniProt P07947) | 45.7
Casein kinase I isoform epsilon (CSNK1E, Homo sapiens, UniProt P49674) | 90.3
Calcium/calmodulin-dependent protein kinase kinase 1 (CAMKK1, Homo sapiens, UniProt Q8N5S9) | 107
Ephrin type-A receptor 2 (EPHA2, Homo sapiens, UniProt P29317) | 81.8
Serine/threonine-protein kinase SIK2 (SIK2, Homo sapiens, UniProt Q9H0K1) | 101
SRSF protein kinase 1 (SRPK1, Homo sapiens, UniProt Q96SB4) | 96.1
Insulin-like growth factor 1 receptor (IGF1R, Homo sapiens, UniProt P08069) | 102

Study 2
Species: human
Sample: microsomes or S9
Concentration: 2 µM
Time: 0.5 h
SMILES | remaining compound [%]
Oc1ccccc1Oc1ncc(Br)c(Cl)n1 | > 99.9
Cc1ccc(CSC2=NS(=O)(=O)c3ccccc32)cc1 | 0
O=C(N1CCCO1)N(c1ccccc1)c1ccccc1 | 64.2
CC(C)n1nc(-c2ccc3ncccc3c2)c2cnc3cc(F)ccc3c21 | 31.1
Brc1ccc2nc(-c3cccs3)cn2c1 | 41.7
Cc1c(C(=O)Nc2cc(Cl)ccc2OCC2CCCO2)oc2c1C(=O)CC(C)(C)C2 (centres unmarked) | 96.5
O=C1CC(c2ccc3c(c2)OCO3)CC2=C1C(c1ccncc1)Nc1ccccc1N2 (centres unmarked) | 65.1

Study 3
Compound: O=C(COc1ccccc1P(=O)(O)O)NCC(F)(F)c1cccc(F)c1
Cell line: human islets
Method: qPCR
Concentration: concentration not given
Notes: unit not given
Baseline: low glucose control
test | conditions | mRNA level
item: ALDH1A3 | together with: high glucose (20 mM) | 2.13 and 2.75 and 4.33 and 3.49
item: PIN1 | together with: glucolipotoxic conditions | 1.26 and 1.05 and 0.89
item: BRAF | together with: high glucose (20 mM) | 0.779 and 2.09 and 0.994 and 0.922
item: NFATC1 | together with: glucolipotoxic conditions | 0.638 and 1.21 and 1.07 and 0.639

Study 4
Cell line: normal-adjacent organoid sample D
Method: CellTiter-Glo
Concentration: 0.1 µM
Notes: replicate mean
Baseline: DMSO
SMILES | viability [%]
Nc1c(C(=O)NCc2ccc(C(=O)NCCCC3CCCCC3)cc2)cnn1-c1ccccc1 | 153
O=C(NCCCC1CCCCC1)c1ccc(CNC(=O)c2cnn(-c3ccccc3)c2C(F)(F)F)cc1 | 126
O[C@]1(C(F)(F)F)CCCC[C@H]1Nc1ccc(F)cc1 | 105
COc1cc(N[C@@H]2CCCC[C@]2(O)C(F)(F)F)ccc1F | 114
CS(=O)(=O)N1CCCC(NC(=O)[C@H](CCC2CCCCC2)NC(=O)c2ccc(CNC(=O)c3cnc4ccccn34)cc2)C1 (some centres unmarked) | 132
CN1C(=O)[C@@H](N2CCc3c(nn(Cc4ccccc4)c3Br)C2=O)COc2ccccc21 | 110
CN1C(=O)[C@@H](N2CCc3cn(Cc4ccccc4)nc3C2=O)COc2ccccc21 | 124

Study 5
Cell line: HaCaT
Concentration: 100 µM
Time: 18 h
SMILES | viability
COc1ccc(-c2cc(=O)c3c(O)c(OC)c(O)cc3o2)cc1OC | 89%
CC[C@H](C)C(=O)O[C@H]1C[C@@H](C)C=C2C=C[C@H](C)[C@H](CC[C@@H]3C[C@@H](O)CC(=O)O3)[C@H]21 | 74.9%
CC(C)(C)NCC(O)c1ccc(O)c(CO)c1 (centres unmarked) | 91%
COc1cc(C=O)ccc1O | 95.9%
CCCCC(O)c1ccccc1 (centres unmarked) | 88.4%
C[C@H]1COc2c(C3(N)CC3)c(F)cc3c(=O)c(C(=O)O)cn1c23 | 112%

Further values, each from its own experiment
SMILES | system | measurement | result
CCOC(=O)[C@@H]1CSCC(=O)N[C@@H](CC)C(=O)N(C)[C@@H](C)C(=O)N[C@H](CC(C)C)C(=O)N2CCC[C@H]2C(=O)N(CC(C)C)CC(=O)N[C@@H](CC(C)C)C(=O)N(C)[C@@H](C)C(=O)N[C@@H](CC(C)C)C(=O)N1C | hydrocarbon/water | logD | 0.612

For quick reference, copied from above (study 3):
test | conditions | mRNA level
item: PIN1 | together with: glucolipotoxic conditions | 1.26 and 1.05 and 0.89
item: NFATC1 | together with: glucolipotoxic conditions | 0.638 and 1.21 and 1.07 and 0.639
item: BRAF | together with: high glucose (20 mM) | 0.779 and 2.09 and 0.994 and 0.922
item: ALDH1A3 | together with: high glucose (20 mM) | 2.13 and 2.75 and 4.33 and 3.49
